Published values collected from several papers.
Compare with care: the assays were run in different laboratories. Values joined by “and” are separate records of one study, mostly repeats; a detail may differ. Numbers after ± are the reported error. ≈ marks a conversion by molar mass, not a printed value.

CCN1/C(=C/C(C)=O)Sc2ccc(F)cc21 gave a QRS duration of 36 ± 1 ms (cynomolgus monkey; oral, 30 mg/kg, 6 h post-dose).
For O=C(N[C@H](Cc1c[nH]c2ccccc12)C(=O)Nc1ccncc1)c1ccc(-c2cc(C(F)(F)F)ccc2F)cc1F, the concentration was 2140 nM (Swiss Webster mouse, female, intestine; oral, 50 mg/kg, 8 h, 20% HPβCD vehicle).
COCCOc1cnc2ccn([C@H](C)c3nnc4c(F)cc(-c5cnn(C)c5)cn34)c(=O)c2c1 has a Ctrough of 420 ng/mL (patients, plasma; oral, 200 mg once daily, day 1 24 h postdose).
With CN1CCC[C@H](CN2c3ccccc3Sc3ccccc32)C1.Cl the Tmax was 2 h (fasted female ICR mouse, skin; oral, 16 mg/kg).
CNC(=O)c1ccc(-c2cnc3ncc(Cc4ccc5ncccc5c4)n3n2)cc1F — result for “abdominal discomfort incidence”: 0% (healthy human subjects; oral, 400 mg, grade 3, all causality, added: rifampicin 600 mg/day).
O=C1CCc2ccc(OCCCCN3CCN(c4cccc(Cl)c4Cl)CC3)cc2N1: “extrapyramidal symptom frequency” 11% (CYP2D6 poor metabolizers; concentration not given, genotype-based phenotype, long-acting oral or depot).
c1ccc(-c2nc(NCc3nc4ccccc4o3)c3ccccc3n2)nc1 has a kinetic solubility of 38 µg/mL (≈ 108 µM) (Japanese Pharmacopoeia disintegration test solution 2; pH 6.8).
c1csc(CNc2cc[nH]n2)c1: “tail DNA (mean)” 1.6% (DNA damage, alkaline comet; Hsd:ICR(CD-1) mice, female, liver; oral gavage, 500 mg/kg/day, 3 days).
CCc1nc(C(N)=O)c(Nc2ccc(N3CCC(N4CCN(C)CC4)CC3)c(OC)c2)nc1NC1CCOCC1 gave a Cmax of 210 ng/mL (Japanese patients, plasma; oral, 200 mg, cycle 0 day -2, single dose, median).
For CN(C(=O)n1cnc(-c2cccnc2)c1)C1CCCCC1, the concentration was 7.3 ± 0.2 ng/g (Wistar rat, medulla oblongata; oral, 10 mg/kg/day of BIA 10-2474, 48 h, repeated 5 days).
Under “NKT cell count change”, Cn1cc(Nc2nccc(-c3ccc4c(c3)CN(C3COC3)CC[C@H]4NC(=O)c3cn(C(C)(C)C)nn3)n2)cn1 is recorded as 12.7% (human, whole blood; 50 mg twice daily, day 14; reference: pre-dose baseline).
O=C(Nc1nc2cccc(-c3ccc(CN4CCS(=O)(=O)CC4)cc3)n2n1)C1CC1 — result for “treatment-emergent adverse events”: 0% (refers to: dyspepsia; human rheumatoid arthritis patients; oral, 200 mg once daily, 4 weeks, regardless of relatedness).
Cl.[2H]C([2H])([2H])CC(=O)c1cnc(NC(=O)C2CC2)cc1Nc1cccc(-c2ncn(C([2H])([2H])[2H])n2)c1OC gave a Vz/F of 134 L (geometric mean; human; oral, 25 mg single dose, fasted, liquid).
CN[C@@H](C)C(=O)N[C@H]1CN(C(=O)CC(C)C)CC[C@H]2CC[C@@H](C(=O)NC(c3ccccc3)c3ccccc3)N2C1=O — result for “unchanged drug in urine”: ~15% (SCID mouse, urine; oral, dose not given; reference: absorbed amount).
For O=C1NCCc2nc(OCc3cccc(F)c3)ccc21, “Irwin test score” read 0 (refers to: Convulsions; Sprague-Dawley rat male; oral, 100 mg/kg, 0 min; reference: baseline, direction not given).
For C[C@@H](O)[C@H](NC(=O)c1ccc(-c2ccc(Br)cc2)cc1)C(=O)NCC1(C)NC(=O)NC1=O (some centres unmarked), the thermodynamic solubility was 257 µM (≈ 130 µg/mL) (aqueous buffer; pH 7.4).
Under “median fetal accumulation”, CCCCc1ccc(C#Cc2ccc(OCC)cc2)cc1 is recorded as 0.637 ng/g (rat, fetus; 5000 ng/mL in perfusate, high dose, mixture of 21 LCMs).
CCc1cc(C(=O)NC)c2nccc(N3CCc4c(cc(Cn5ccnc5)cc4-c4cn(C)nc4C(F)(F)F)C3=O)c2c1 has a body weight of 258 ± 8.8 g (Sprague Dawley rat; oral, 50 mg/kg once daily, day 6, 7-day toxicology study).
Under “fatigue TEAE incidence”, COc1ccc([C@@H](O)c2cc(-c3ncnc4cc(N5CCOCC5)ccc34)c(F)cc2Cl)nn1 is recorded as 0% (locally advanced rectal cancer patients; 250 mg, added: capecitabine and radiotherapy).
For CCc1c(-c2ccccc2)c(-c2ccccc2)nn1-c1ccccc1-c1cccc(OCC(=O)O)c1, the concentration was 15800 ng/g and 21600 ng/g (Sprague-Dawley rat, small intestine; oral, 10 mg/kg, 4 h).
